{"data": "Published values from different studies", "cell line": "U-937", "note": "Lines come from different studies, so protocols differ."}
{"SMILES": "CNS(=O)(=O)Nc1nccc(Cc2c(C)c3ccc(Oc4ncccc4F)cc3oc2=O)c1F", "observed": "cell viability", "time": "7 days", "quantity": "IC50", "result": "> 1000 nM"}
{"SMILES": "NC(=O)c1ccc(-c2ccccc2Cl)c2c3c([nH]c12)CC[C@H](N)C3", "observed": "cell growth or viability", "quantity": "IC50", "result": "13.9 nM"}
{"SMILES": "CC(C)c1ccc(N(C)c2ccc3c(c2)OCC[C@H]3CNc2cnccc2C(=O)O)cc1", "observed": "cell growth or viability", "method": "ATP luminescence", "time": "7 days", "quantity": "IC50", "result": "2.55 nM"}
{"SMILES": "CC1CCC2C(C)C(OC(=O)CCC(=O)OCCOC(=O)N3CCC(Nc4ccc(S(=O)(=O)NC(=O)c5ccc(N6CCN(CC7=C(c8ccc(Cl)cc8)CC(C)(C)CC7)CC6)cc5Oc5cnc6[nH]ccc6c5)cc4[N+](=O)[O-])CC3)OC3OC4(C)CCC1C32OO4 (stereo not shown)", "observed": "cell growth or viability", "quantity": "GI50", "result": "380 nM"}
{"SMILES": "Cc1[nH][n+]([Pd-2]([Br])([Br])[n+]2[nH]c(C)c(CSC3CCCCC3)c2C)c(C)c1CSC1CCCCC1", "observed": "cytotoxicity", "reference": "IC50 HEK293 over IC50 U-937", "quantity": "selectivity index", "result": 3.1}
{"SMILES": "CCOc1cncc(-c2ccc(NC(=O)C3(c4ccnc(NS(=O)(=O)C5CC5)n4)CCOCC3)nc2)n1", "observed": "cell proliferation", "method": "CellTiter-Glo", "time": "72 h", "quantity": "IC50", "result": "21 nM"}
{"SMILES": "Cc1[nH][n+]([Pt-2]([Cl])([n+]2[nH]c(C)c(CSCc3ccccc3)c2C)[n+]2[nH]c(C)c(CSCc3ccccc3)c2C)c(C)c1CSCc1ccccc1.[Cl-]", "observed": "cytotoxicity", "reference": "IC50 HEK293 over IC50 U-937", "quantity": "selectivity index", "result": 1.6}
{"SMILES": "CC1CCC2C(C)C(OC(=O)CCC(=O)OCCOCCOC(=O)N3CCC(Nc4ccc(S(=O)(=O)NC(=O)c5ccc(N6CCN(CC7=C(c8ccc(Cl)cc8)CC(C)(C)CC7)CC6)cc5Oc5cnc6[nH]ccc6c5)cc4[N+](=O)[O-])CC3)OC3OC4(C)CCC1C32OO4 (stereo not shown)", "observed": "cell growth or viability", "quantity": "GI50", "result": "620 nM"}
{"SMILES": "CN1CCC(N[C@@H]2CCc3[nH]c4c(C(N)=O)ccc(-c5ccccc5Cl)c4c3C2)CC1", "observed": "cell growth or viability", "quantity": "IC50", "result": "2.26 nM"}
{"SMILES": "Cc1[nH][n+]([Pd-2]([Br])([Br])[n+]2[nH]c(C)c(CSCc3ccccc3)c2C)c(C)c1CSCc1ccccc1", "observed": "cytotoxicity", "reference": "IC50 HEK293 over IC50 U-937", "quantity": "selectivity index", "result": 1.4}
{"note": "Excerpt of the above:"}
{"SMILES": "Cc1[nH][n+]([Pd-2]([Br])([Br])[n+]2[nH]c(C)c(CSCc3ccccc3)c2C)c(C)c1CSCc1ccccc1", "observed": "cytotoxicity", "reference": "IC50 HEK293 over IC50 U-937", "quantity": "selectivity index", "result": 1.4}
